Results gathered from unrelated publications.
A part holds a random share of what one study measured. Several values in a cell are separate wells, animals, samples, runs or records.

Study 1
Target: LIM domain kinase 1 (LIMK1, Homo sapiens, UniProt P53667)
Chain of UniProt P53667 (whole entry, looked up): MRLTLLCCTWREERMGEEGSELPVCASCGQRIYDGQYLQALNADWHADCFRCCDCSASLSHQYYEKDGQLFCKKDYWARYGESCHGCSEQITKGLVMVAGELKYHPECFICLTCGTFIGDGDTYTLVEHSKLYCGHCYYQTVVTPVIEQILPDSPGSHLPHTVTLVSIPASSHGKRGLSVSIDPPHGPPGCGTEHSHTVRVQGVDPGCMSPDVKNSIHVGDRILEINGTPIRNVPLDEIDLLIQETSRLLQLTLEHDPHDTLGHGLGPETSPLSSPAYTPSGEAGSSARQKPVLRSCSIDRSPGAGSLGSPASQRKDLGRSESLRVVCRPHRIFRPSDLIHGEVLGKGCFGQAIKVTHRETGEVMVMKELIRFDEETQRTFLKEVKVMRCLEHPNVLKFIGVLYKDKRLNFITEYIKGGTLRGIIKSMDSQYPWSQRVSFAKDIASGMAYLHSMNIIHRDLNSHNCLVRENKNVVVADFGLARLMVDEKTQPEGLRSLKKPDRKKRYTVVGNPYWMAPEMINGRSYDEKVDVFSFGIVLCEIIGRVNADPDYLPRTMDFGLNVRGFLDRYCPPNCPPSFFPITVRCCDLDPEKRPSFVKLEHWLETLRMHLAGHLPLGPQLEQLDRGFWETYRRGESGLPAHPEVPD
Read-out: enzyme activity
Mode: inhibitor
Concentration: 0.5 µM
Relative to: control
Structure (SMILES) | remaining activity [%]
N#CC(=C(N)Sc1ccc(N)cc1)c1ccccc1C(F)(F)F | 98.7
NC(=O)c1ccc(N(C(N)=O)c2c(F)cccc2F)nc1-c1ccc(F)cc1F | 98.5
CC(=O)c1ccc(N2CCOCC2)cc1O | 93.6
Nc1ncnc2c1cnn2-c1ccccc1 | 89.1
Cc1cc(Nc2nc(-c3ccccc3)nc3ccccc23)n[nH]1 | 59.6
CSc1nc(-c2ccnc(N[C@@H](C)c3ccccc3)c2)c(-c2ccc(F)cc2)[nH]1 (racemic) | 103
O=C1NC(=O)C(c2c[nH]c3ccccc23)=C1c1c[nH]c2ccccc12 | 103
COc1ccc(S(=O)(=O)N(CCO)c2ccccc2CN(C)CC=Cc2ccc(Cl)cc2)cc1 | 102
Fc1ccc(-c2nc3n(c2-c2ccncc2)CCS3)cc1 | 89.3
CCCC(=O)Oc1ccc2[nH]c(C(=O)c3cc4ccccc4[nH]3)cc2c1 | 93.9
O=S(=O)(NCCNC/C=C/c1ccc(Br)cc1)c1cccc2cnccc12 | 90.6
O=C1Cc2c([nH]c3ccc([N+](=O)[O-])cc23)-c2ccccc2N1 | 94.3
CC[n+]1c(/C=C/N(C)c2ccccc2)n(-c2ccccc2)c2ccc(-c3nc4ccccc4s3)cc21 | 98.3
CC(C)(C)n1nc(Cc2cccc3ccccc23)c2c(N)ncnc21 | 94.5
CCc1[nH]c(-c2ccc(OC)cc2)nc1-c1ccncc1 | 94.9
Oc1ccc(Nc2nc(-c3ccc(Cl)cc3)cs2)cc1 | 90.5
CC#CC(=O)Nc1cc2c(Nc3ccc(F)c(Cl)c3)ncnc2cn1 | 84.2
Cc1ccc(NC2=CC(=O)c3sc(C)nc3C2=O)cc1 | 104
Nc1nccc(-c2c(-c3ccc(F)cc3)ncn2C2CCNCC2)n1 | 89.6
Cc1cncc2cccc(S(=O)(=O)N3CCCN(C(=O)CN)C[C@@H]3C)c12 | 91.9

Study 2
Host: mouse
Sample: microsomes or S9
Concentration: 2 µM
Time: 0.5 h
SMILES | remaining compound [%]
CCc1cccc(N2C(=O)Nc3ccccc3N2O)c1 | 69.3
O=C(NCCCCCCNC(=O)N1CCCCC1)N1CCCCC1 | 0.206
COCCCNC(=O)C(C)NS(=O)(=O)c1ccc(Br)cc1 (stereo not drawn) | 50.9
CCN1CCC(N(C)S(=O)(=O)c2c(C)cc(C(C)(C)C)cc2C)CC1 | 4.45
O=C(CCC1N=C(O)N(Cc2ccco2)C1=O)Nc1ccc2cc[nH]c2c1 (stereo not drawn) | 96
Brc1ccc2c(c1)CCN2Cc1cnc(-c2ccncc2)s1 | 22.4
COCCNC(=O)C(c1ccc(Cl)cc1)N(CCOC)C(=O)CCC(=O)Nc1ccccn1 (stereo not drawn) | 21.4
COC(C(=O)Nc1ccc(S(=O)(=O)Nc2cccc(Cl)c2Cl)cc1)c1ccccc1 (stereo not drawn) | 15
CN(C1CCNCC1)S(=O)(=O)c1ccc(Cl)s1 | 56.9
Cc1ccccc1Cn1c(=O)n(Cc2ccc(F)cc2)c(=O)c2nccnc21 | 36.1
COc1cc(C2c3c(-c4ccccc4)nn(C)c3C(=O)N2Cc2ccco2)cc(OC)c1O (stereo not drawn) | 17.4
COc1ccc(C)cc1NC(=O)c1[nH]c(C)c(S(=O)(=O)N2CCCC2)c1C | < 1
c1cc2c(cc1OCc1cn(CC3CCCNC3)nn1)CCC2 (stereo not drawn) | 84.8
NS(=O)(=O)c1ccc(CCNc2nc3c(S(=O)(=O)c4ccccc4)nnn3c3ccccc23)cc1 | 3.19

Study 3
Target: DNA polymerase theta, ATPase domain (POLQ, Homo sapiens, UniProt O75417)
Chain of UniProt O75417 (whole entry, unmodified, looked up): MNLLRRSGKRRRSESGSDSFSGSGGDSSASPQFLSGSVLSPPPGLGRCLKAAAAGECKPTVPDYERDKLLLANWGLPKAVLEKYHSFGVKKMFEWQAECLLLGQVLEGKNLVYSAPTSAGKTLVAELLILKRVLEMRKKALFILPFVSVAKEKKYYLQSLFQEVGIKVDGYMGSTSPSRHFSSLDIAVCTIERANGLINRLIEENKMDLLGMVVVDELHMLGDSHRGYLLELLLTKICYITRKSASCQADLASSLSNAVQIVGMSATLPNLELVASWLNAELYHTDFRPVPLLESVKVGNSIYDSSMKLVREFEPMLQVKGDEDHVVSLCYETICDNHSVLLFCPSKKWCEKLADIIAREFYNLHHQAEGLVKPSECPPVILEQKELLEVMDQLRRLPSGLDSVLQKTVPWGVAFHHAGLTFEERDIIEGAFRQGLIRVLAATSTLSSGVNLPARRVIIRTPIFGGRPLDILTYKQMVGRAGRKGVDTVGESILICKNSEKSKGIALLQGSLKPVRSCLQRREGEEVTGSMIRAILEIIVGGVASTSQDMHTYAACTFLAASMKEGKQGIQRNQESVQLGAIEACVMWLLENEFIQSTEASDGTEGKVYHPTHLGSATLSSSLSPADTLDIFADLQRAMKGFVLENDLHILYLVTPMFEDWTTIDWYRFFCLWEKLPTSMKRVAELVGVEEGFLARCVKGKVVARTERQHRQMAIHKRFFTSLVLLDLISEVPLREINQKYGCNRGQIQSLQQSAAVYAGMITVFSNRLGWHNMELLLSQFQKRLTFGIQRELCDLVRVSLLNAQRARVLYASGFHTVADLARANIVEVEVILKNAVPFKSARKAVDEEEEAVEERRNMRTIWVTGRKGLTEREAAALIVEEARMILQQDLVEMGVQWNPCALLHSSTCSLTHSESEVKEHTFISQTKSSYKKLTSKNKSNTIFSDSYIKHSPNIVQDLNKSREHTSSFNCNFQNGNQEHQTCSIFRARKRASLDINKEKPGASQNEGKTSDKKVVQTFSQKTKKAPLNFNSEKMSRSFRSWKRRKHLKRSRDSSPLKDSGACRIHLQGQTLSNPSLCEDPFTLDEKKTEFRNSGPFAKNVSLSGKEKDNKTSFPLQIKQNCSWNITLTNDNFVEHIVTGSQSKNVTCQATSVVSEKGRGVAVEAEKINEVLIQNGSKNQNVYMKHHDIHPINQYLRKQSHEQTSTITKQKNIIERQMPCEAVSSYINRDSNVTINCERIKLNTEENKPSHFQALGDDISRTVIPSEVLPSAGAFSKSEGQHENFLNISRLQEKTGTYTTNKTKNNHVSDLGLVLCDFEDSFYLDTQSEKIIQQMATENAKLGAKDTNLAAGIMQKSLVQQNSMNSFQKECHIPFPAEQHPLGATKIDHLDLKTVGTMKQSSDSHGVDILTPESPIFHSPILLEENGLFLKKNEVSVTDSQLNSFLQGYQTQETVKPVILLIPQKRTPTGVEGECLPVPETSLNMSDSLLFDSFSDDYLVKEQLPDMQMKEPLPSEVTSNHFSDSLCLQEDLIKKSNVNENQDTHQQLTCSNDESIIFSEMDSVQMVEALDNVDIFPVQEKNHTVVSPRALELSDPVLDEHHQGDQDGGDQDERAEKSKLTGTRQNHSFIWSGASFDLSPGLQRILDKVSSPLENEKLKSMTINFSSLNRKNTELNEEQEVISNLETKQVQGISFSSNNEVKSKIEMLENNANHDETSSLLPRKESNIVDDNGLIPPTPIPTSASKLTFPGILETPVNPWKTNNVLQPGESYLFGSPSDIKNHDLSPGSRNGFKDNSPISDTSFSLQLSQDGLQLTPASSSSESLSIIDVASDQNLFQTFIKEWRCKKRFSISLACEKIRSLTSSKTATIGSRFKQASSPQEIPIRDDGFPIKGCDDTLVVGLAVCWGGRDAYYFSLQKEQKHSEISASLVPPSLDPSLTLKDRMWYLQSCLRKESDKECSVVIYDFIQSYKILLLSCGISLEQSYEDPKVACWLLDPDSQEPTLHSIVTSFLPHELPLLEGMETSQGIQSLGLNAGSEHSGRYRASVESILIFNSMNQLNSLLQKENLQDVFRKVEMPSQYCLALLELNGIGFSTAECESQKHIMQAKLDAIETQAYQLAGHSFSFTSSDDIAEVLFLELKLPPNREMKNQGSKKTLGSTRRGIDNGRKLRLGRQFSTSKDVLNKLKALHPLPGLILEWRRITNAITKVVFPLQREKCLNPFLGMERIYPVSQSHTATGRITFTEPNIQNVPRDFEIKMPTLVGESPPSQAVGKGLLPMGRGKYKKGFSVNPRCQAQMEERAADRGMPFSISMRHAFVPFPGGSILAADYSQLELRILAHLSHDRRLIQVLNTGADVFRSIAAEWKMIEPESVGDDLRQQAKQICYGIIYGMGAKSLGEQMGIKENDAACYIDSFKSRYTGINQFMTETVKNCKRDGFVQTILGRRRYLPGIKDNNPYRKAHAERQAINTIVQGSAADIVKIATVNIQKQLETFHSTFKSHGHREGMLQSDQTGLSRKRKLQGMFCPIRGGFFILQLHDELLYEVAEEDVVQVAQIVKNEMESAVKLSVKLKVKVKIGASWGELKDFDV
Read-out: enzyme activity
Mode: inhibitor
Concentration: 77 µM
Relative to: untreated
Structure (SMILES) | remaining activity
C=CC[N@@+]12CC[C@@]34c5ccccc5N5/C=C6/[C@H]7C[C@H]8[C@@]9(CC[N@@+]8(CC=C)C/C7=C/CO)c7ccccc7N(/C=C(/[C@@H](C[C@@H]31)/C(=C\CO)C2)[C@H]54)[C@@H]69 | 91.9%
O=c1onc2cnc3ccccc3n12 | 96.1%
O=C1Cc2c([nH]c3ccc([N+](=O)[O-])cc23)-c2ccccc2N1 | 93.6%
NS(=O)(=O)c1cc2c(cc1Cl)NC(C1CC3C=CC1C3)NS2(=O)=O (stereo not drawn) | 101%
COc1cc(Nc2c(C#N)cnc3cc(OCCCN4CCN(C)CC4)c(OC)cc23)c(Cl)cc1Cl | 95.8% and 95.3% and 98.1% and 100%
Cc1cc(Nc2cc(CN3CCOCC3)c3nc(C)c(Cc4ccc(Cl)cc4F)n3n2)n[nH]1 | 97.6%
CCN(C(=O)c1c(O)c2c(Cl)cccc2n(C)c1=O)c1ccccc1 | 84%
Nc1nc(Nc2ccc(S(N)(=O)=O)cc2)nn1C(=O)c1c(F)cccc1F | 99% and 93.8% and 98% and 97.5% and 114%
CSC(=N)NCCC[C@H](N)C(=O)O | 102%
Oc1cc(O)c(Cl)cn1 | 98.2%
N#C[C@@H]1CCCN1C(=O)CNC12CC3CC(CC(O)(C3)C1)C2 | 104%
CN1CC(=O)N=C1NC(=O)Nc1cccc(Cl)c1 | 99.8%
C=C1C[C@@]2(O)O[C@@]3(C[C@H]2C(C)C)[C@@H](C)CC[C@@H]13 | 101%
CC(C(=O)O)c1ccc(CC2CCCC2=O)cc1 (stereo not drawn) | 105%
CC(N)=O | 89.5%
N#CSc1ccc2oc(C3=NCCN3)cc2c1 | 65.6%
Nc1nc(=O)[nH]cc1F | 104% and 102%

Study 4
SMILES: O=C1CCC(N2Cc3cc(C4CCN(Cc5ccccc5)CC4)ccc3C2=O)C(=O)N1 (stereo not drawn)
Target: Protein cereblon (CRBN, Homo sapiens, UniProt Q96SW2)
Chain of UniProt Q96SW2 (whole entry, looked up): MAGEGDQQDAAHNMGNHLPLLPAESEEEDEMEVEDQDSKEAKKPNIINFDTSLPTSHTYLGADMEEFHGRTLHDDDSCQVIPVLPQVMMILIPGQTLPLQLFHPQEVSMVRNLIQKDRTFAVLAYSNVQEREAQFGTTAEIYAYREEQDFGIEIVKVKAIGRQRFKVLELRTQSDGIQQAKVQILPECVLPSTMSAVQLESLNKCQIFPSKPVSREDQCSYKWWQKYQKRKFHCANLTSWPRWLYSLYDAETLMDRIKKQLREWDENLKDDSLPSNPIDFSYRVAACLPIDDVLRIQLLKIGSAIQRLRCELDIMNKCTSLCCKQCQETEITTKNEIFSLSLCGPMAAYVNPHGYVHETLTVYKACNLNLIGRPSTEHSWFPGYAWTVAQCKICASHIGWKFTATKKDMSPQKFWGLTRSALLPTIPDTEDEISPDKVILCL
Read-out: cell-free assay
Method: TR-FRET
setting | inhibition
41.15 µM | 5.3% and 13.9%
0.17 µM | -0.0425% and 4.2%
0.51 µM | 0.9% and -8.7%
123.5 µM | 27.1%
10 mM | 99.4%
1.52 µM | 0.8% and 3%

A few entries again (study 3):
Structure (SMILES) | remaining activity
O=c1onc2cnc3ccccc3n12 | 96.1%
O=C1Cc2c([nH]c3ccc([N+](=O)[O-])cc23)-c2ccccc2N1 | 93.6%
NS(=O)(=O)c1cc2c(cc1Cl)NC(C1CC3C=CC1C3)NS2(=O)=O (stereo not drawn) | 101%
COc1cc(Nc2c(C#N)cnc3cc(OCCCN4CCN(C)CC4)c(OC)cc23)c(Cl)cc1Cl | 95.8% and 95.3% and 98.1% and 100%
Cc1cc(Nc2cc(CN3CCOCC3)c3nc(C)c(Cc4ccc(Cl)cc4F)n3n2)n[nH]1 | 97.6%
CCN(C(=O)c1c(O)c2c(Cl)cccc2n(C)c1=O)c1ccccc1 | 84%
Nc1nc(Nc2ccc(S(N)(=O)=O)cc2)nn1C(=O)c1c(F)cccc1F | 99% and 93.8% and 98% and 97.5% and 114%
CSC(=N)NCCC[C@H](N)C(=O)O | 102%
